# Measured values collected from several papers.
# Numbers after ± are the reported error.
# CDC25B: M-phase inducer phosphatase 2 (CDC25B, Homo sapiens, UniProt P30305)
Structure (SMILES),target,assay,system,setting,inhibition [%]
COc1cc(S(=O)(=O)Nc2ccc(Nc3ccnc(N4CCCC4)n3)cc2)c(C)cc1C,"Heat shock protein HSP 90-alpha, with Cdc37 (HSP90AA1, Homo sapiens, UniProt P07900)","Hsp90-Cdc37 interaction, HTRF",,200 µM,> 50
O=c1c(F)cn(Cc2cn([C@H]3O[C@H](CO)[C@@H](O)[C@H](O)[C@H]3O)nn2)c(=O)n1Cc1cn([C@H]2O[C@H](CO)[C@@H](O)[C@H](O)[C@H]2O)nn1,"GAA (Homo sapiens, UniProt P10253)","enzyme activity, inhibitor, fluorescence",,"1.43 mM, pH 4, lysate",18
N#Cc1c(F)c(Cl)c2nc(SCc3ccccc3)nc(N)c2c1F,CDC25B,"enzyme activity, inhibitor, fluorescence",,20 µg/mL,99.7
O=C(O)CCC(=O)c1cccc(NS(=O)(=O)c2c[nH]c3ncccc23)c1,"Aurora kinase A (AURKA, Homo sapiens, UniProt O14965)","enzyme activity, inhibitor, radiometric",,10 µM,44
C[Si]1(C[C@H](CN)CC(=O)O)CCCC1,"Voltage-dependent calcium channel subunit alpha-2/delta-1 (Rattus norvegicus, UniProt P54290)",[3H]gabapentin binding,rat cerebral cortex membranes,"0.39 µM, together with: [3H]gabapentin 20 nM",10
Cc1ccc(Nc2nc(SCc3cn(CC(=O)NC(=O)Nc4ccccn4)nn3)nc(-c3ccccc3)c2C#N)cc1,"KDM1A (Homo sapiens, UniProt O60341)","enzyme activity, inhibitor, fluorescence",,1 µM,100
CC(C)(C)C(=O)CN1C(=O)[C@H](NC(=O)Nc2cccc(C(=O)NCCOCCOCCOCCC(=O)N[C@H](CCC(=O)O)C(=O)N[C@H](CCC(=O)O)C(=O)N[C@H](CCC(=O)O)C(=O)N[C@H](CCC(=O)O)C(=O)N[C@@H](CCCCNC(=O)C(CNCCN)CNCCN)C(=O)O)c2)CN(C2CCCCC2)c2ccccc21,"CCKBR (Homo sapiens, UniProt P32239)","calcium signal, antagonist",,0.1 µM,~54
C[C@@H](N)C1CCN(S(=O)(=O)c2cccc3cnccc23)CC1,"CLK1 (Homo sapiens, UniProt P49759)","cell-free assay, competition with immobilised ligand",,10 µM,> 95
N#Cc1c(F)c(F)c2c(N)nc(SCc3ccccc3)nc2c1F,CDC25B,"enzyme activity, inhibitor, fluorescence",,20 µg/mL,98.2
Oc1c(C(Nc2nc3ccccc3s2)c2cccc(OCc3ccccc3)c2)ccc2cccnc12 (centres unmarked),"Genome polyprotein, NS2B-NS3 protease (Dengue virus type 2, UniProt P14340)","enzyme activity, inhibitor, fluorogenic",,"10 µM, 0.1% CHAPS, together with: Bz-Nle-Lys-Arg-Arg-AMC substrate",87.3 ± 1.25
Cc1ncc(/C=N/NC(=O)c2cc3c(s2)CCCC3)cn1,"dxs (Deinococcus radiodurans, UniProt Q9RUB5)","enzyme activity, inhibitor",,120 µM,31
O=C(Nc1ccc(Cl)cc1)c1cccc(S(=O)(=O)Nc2ccc(Cl)cc2)c1,"Ectonucleoside triphosphate diphosphohydrolase 1 (Homo sapiens, UniProt P49961)","enzyme activity, inhibitor, absorbance",,100 µM,9
COc1cc(C(=O)O[C@@H]2Cc3c(O)cc(O)cc3O[C@@H]2c2ccc(O)c(O)c2)cc(O)c1O,"Si (Rattus norvegicus, UniProt P23739)","enzyme activity, inhibitor",rat intestinal brush border vesicles,10 µM,41.9
CC(=O)c1cnc(N)nc1N1CC[C@H]1c1nn2ccc(Cl)c2c(=O)n1-c1ccccc1,"CACNA1H (Homo sapiens, UniProt O95180)","ion current, inhibitor",,3 µM,< 10
CCCCCCCCC=CCCCCCCCC(=O)OCC1OC(n2ccc(N)nc2=O)C(F)(F)C1O (centres unmarked),"Cytidine deaminase (CDA, Homo sapiens, UniProt P32320)","enzyme activity, inhibitor",,"500 µM, together with: gemcitabine 500 µM",47.2
COc1cc(C(=O)NC2CCC(N3CCN(CC4CCC5(CCCC5)C4)CC3)CC2)c(F)cc1Nc1ncc2c(n1)N(C1CCCC1(F)F)CC(F)(F)C(=O)N2C (centres unmarked),"KIT (Homo sapiens, UniProt P10721)","cell-free assay, TR-FRET",,10 µM,0.77
CCNC(=O)Nc1ccc(OCCCOc2ccc(NC(=O)NCC)cc2)cc1,"Transcription antitermination protein NusB, with NusE (nusB, Bacillus subtilis, UniProt P54520)","protein-protein interaction, inhibitor, competitive ELISA",,"25 µM, 15 min preincubation, 37 °C, together with: 200 nM GST-NusE",59

# For quick reference, copied from above:
Structure (SMILES),target,assay,system,setting,inhibition [%]
C[Si]1(C[C@H](CN)CC(=O)O)CCCC1,"Voltage-dependent calcium channel subunit alpha-2/delta-1 (Rattus norvegicus, UniProt P54290)",[3H]gabapentin binding,rat cerebral cortex membranes,"0.39 µM, together with: [3H]gabapentin 20 nM",10
CC(C)(C)C(=O)CN1C(=O)[C@H](NC(=O)Nc2cccc(C(=O)NCCOCCOCCOCCC(=O)N[C@H](CCC(=O)O)C(=O)N[C@H](CCC(=O)O)C(=O)N[C@H](CCC(=O)O)C(=O)N[C@H](CCC(=O)O)C(=O)N[C@@H](CCCCNC(=O)C(CNCCN)CNCCN)C(=O)O)c2)CN(C2CCCCC2)c2ccccc21,"CCKBR (Homo sapiens, UniProt P32239)","calcium signal, antagonist",,0.1 µM,~54
N#Cc1c(F)c(F)c2c(N)nc(SCc3ccccc3)nc2c1F,CDC25B,"enzyme activity, inhibitor, fluorescence",,20 µg/mL,98.2
